Measured values from different studies.
A part holds a random share of what one study measured.

Series 1
Target: PABPC1L2, full length, GST fusion (mouse, UniProt A0ABA7IW68)
Method: RNAcompete
Form: RNA
Medium: in vitro
Concentration: 20 nM
Notes: 7-mer, probes averaged, single round
Relative to: mean of 7-mers
Reading: higher = stronger binding
Measurement: 7-mer Z-score
Construct (chain): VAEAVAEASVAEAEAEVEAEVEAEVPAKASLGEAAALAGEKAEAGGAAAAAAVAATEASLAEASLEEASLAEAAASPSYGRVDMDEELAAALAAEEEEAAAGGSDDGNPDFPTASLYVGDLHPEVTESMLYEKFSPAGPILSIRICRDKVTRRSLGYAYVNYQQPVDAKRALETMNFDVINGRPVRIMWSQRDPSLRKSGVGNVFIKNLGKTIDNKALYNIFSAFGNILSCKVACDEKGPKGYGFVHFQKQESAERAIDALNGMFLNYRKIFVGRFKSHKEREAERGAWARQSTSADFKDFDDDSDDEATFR
UGUUUCA: -0.483
GGGCAUA: 0.283
UCUAUUA: -0.291
AAACGAA: 1.36
ACAUUCC: -0.24
AGGACCC: -0.0554
UGUUCUA: -0.309
CCGACAU: -0.119
UUCCUUA: -0.393
CCGCCCG: -0.318

Series 2
Target: Ras GTPase-activating protein-binding protein 1, RRM domain (G3BP1, Homo sapiens, UniProt Q13283)
UniProt Q13283, sequence (whole entry, looked up): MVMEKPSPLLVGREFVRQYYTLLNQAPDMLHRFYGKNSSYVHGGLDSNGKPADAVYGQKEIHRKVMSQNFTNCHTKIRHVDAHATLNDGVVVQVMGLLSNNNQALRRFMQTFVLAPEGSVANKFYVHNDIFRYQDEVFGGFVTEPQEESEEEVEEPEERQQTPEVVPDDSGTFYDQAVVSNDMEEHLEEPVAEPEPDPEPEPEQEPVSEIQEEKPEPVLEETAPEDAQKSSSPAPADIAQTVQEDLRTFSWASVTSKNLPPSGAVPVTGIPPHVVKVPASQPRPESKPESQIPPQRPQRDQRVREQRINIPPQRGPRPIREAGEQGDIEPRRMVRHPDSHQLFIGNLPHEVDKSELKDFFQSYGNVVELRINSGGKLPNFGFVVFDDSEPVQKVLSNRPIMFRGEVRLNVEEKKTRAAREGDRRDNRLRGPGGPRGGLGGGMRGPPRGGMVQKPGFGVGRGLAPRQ
Method: RNA Bind-n-Seq
Form: RNA
Medium: in vitro
Concentration: 1 µM
Notes: whole 134-nt RNA, ends assumed
With: 150 mM KCl
Relative to: input library
Reading: higher = stronger binding
Measurement: log2 enrichment
Constant ends, left off below: GGGAGUUCUACAGUCCGACGAUC … UGGAAUUCUCGGGUGUCAAGG
GCAGGAAGUAAAAACAAAUGGAAAUGCUUCGGAUAGUGGCAGGGGUGGAAAUUGCUAAGGAAAGGGUGGGAUGGGAGUGGGUAAAGAGUU: 1.09
CACAGACAACACGCACCCACACAGACACAGAGGGAAGGGGUCGGGAUGGGGACAGGGUGCACAGCAGGGCGGGGUAGGACCCCAGCCCCU: -0.0739
CUCAAGUCCUGUGCUACACAUCGUAUGUACCGAAUCGGUUUGGUGGAAAAAGGAAAGUAUUAUGUUACGCCGUUCGGAUCUGCACUUCCA: -0.235
GCAGGAAGUAAAAACAAAUGGAAAUGCUUCGGAUAGUGGCAGGGGUGGGGGUUGCUAACGAAAGGGUGGGAUGGGAGUGGGUAAAGAGUU: 1.25
AGUCCUGUGCUACACAUCGUAUGUACCGAAUCGGGGAAAAAGGGGAAAGGGGUGGGGAAAGUAUUAUGUUACGCCGUUCGGAUCUGCACU: 0.885
AGUCCUGUGCUACACAUCGUAUGUACCGAAUCGGGGAAAAGGGAAAAGGGAAAAGGGAAAGUAUUAUGUUACGCCGUUCGGAUCUGCACU: 0.538
UGGAUGGACACCAUUAUCGUCGUGUGGCACGGGUUGACCUAAGGAAGAAGACAGAGACUUUCUCCACAAGAAGGGUUAAGUCUGGGCUGU: -0.0729
UCCUCAAGUCCUGUGCUACACAUCGUAUGUACCGAAUCGGCGGGCGGCGGGGAAAGUAUUAUGUUACGCCGUUCGGAUCUGCACUUCCAG: -0.153
AGUCCUGUGCUACACAUCGUAUGUACCGAAUCGGAAAAAAAGGUUUUUUUGGUUUGGAAAGUAUUAUGUUACGCCGUUCGGAUCUGCACU: -0.575
UCAAGUCCUGUGCUACACAUCGUAUGUACCGAAUCGGGAAAGGGUUUGGGUGGGAAAGUAUUAUGUUACGCCGUUCGGAUCUGCACUUCC: 0.684
CACAGACAACACGCACCCACACAGACACAGAGGGAGGGGGUUGGGAUGGGGACAGGGUGCACAGCAGGGCGGGGUAGGACCCCAGCCCCU: 0.13
AGUCCUGUGCUACACAUCGUAUGUACCGAAUCGGGGAAAAAAAGGGGAGGGGUGGGGAAAGUAUUAUGUUACGCCGUUCGGAUCUGCACU: 0.821

Series 3
Target: RING finger protein unkempt homolog, zinc fingers 1-6, GST-SBP tag (UNK, Homo sapiens, UniProt Q9C0B0, residues 30-357)
Method: RNA Bind-n-Seq
Form: RNA
Medium: in vitro
Concentration: not given
Notes: RNA with constant flanks, human and mouse sites, ends assumed
Relative to: input RNA pool
Reading: higher = stronger binding
Measurement: bound/input enrichment
Constant ends, left off below: GGGAGUUCUACAGUCCGACGAUC … CAACAGAGGAUUGAGCAUCA
Target sequence (chain): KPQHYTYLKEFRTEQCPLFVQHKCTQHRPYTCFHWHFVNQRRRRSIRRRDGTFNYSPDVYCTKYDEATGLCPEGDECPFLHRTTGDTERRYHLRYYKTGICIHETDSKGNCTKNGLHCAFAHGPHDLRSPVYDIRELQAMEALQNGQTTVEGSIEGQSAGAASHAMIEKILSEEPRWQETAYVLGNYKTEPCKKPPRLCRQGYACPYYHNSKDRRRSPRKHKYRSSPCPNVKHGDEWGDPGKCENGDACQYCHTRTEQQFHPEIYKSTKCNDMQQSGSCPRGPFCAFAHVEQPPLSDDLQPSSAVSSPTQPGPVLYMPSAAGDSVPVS
AAGAUGAUUUUGUGUUUACCUGUGUUCACUUUGUUUCAUGUUGUUGCCACUGUUGGCUGCUAUUGGAGUCUGAUGGAGGGGUCCUUUGCAGGGCAAGUCUGCAAACCCCGUCAGUACCAA: 0.407 ratio
CUGAAAGUUUUGGCCACAGCUUUUGAUACAACAUUGGGAGGCAGAAAAUUUGAUGAGGUGUUGGUAAAUCACUUCUGUGAAGAAUUUGGAAAGAAAUACAAGCUAGACAUAAAAUCUAAA: 0.538 ratio
UAAAGAACUCUUCAGAAUUCCUGGUGUUUCAUCAUAUAUACGACUAAGAUAUCAACUCUUCUAGCUUGCUGUUUCUGGACCAAAAAAAAUGACGUCUAUUAUCAAAUUAACUACCCUUUC: 1.59 ratio
CUUCCUCUGCCCCCUAUUGAGAUUCCAGCUGUAUUCUCGGGGAACACCUCCCCCAAAGUGGCAGUUGUUAAUCCUCAGCCACAGCUAUGGUCUAAAACAUCAGUGAAGAAGGCCCCCCCA: 0.402 ratio
UUAUGAUUAUUUCAGAGAUCGCGGAUUCAGGUGUGGCUCUAUGAGCAAGUGAAUAUGCGGAUAGAAGGCUGUAUCAUUGGUUUUGAUGAGUAUAUGAACCUUGUAUUAGAUGAUGCAGAA: 0.647 ratio
UUCCGCCACAUGAGGAACCAUGCCUAUGAGCCACUCGCCAGCUUCCUAGACUUCAUUACUUACAGUUACAUGAUCGACAACGUGAUCCUGCUCAUCACAGGCACGCUGCACCAGCGCUCC: 0.375 ratio
UUUGGCAUCACCCAGCGACCAGCGUACAUUAACAUGGUACCUAGCCUGUCGCAGUUCACUAGCAUUUACACACCUUUGGCCAACAUUUCUUCUGAGUAUCCAAUGCAAAGAUCCAUGCCA: 1.76 ratio
UACAUCGCAUUAGACAUUUUUACAUGAGAAAAGUCAAAUUUACUCAACAGAAUUACCAUGAUAGACUUUCACAAAUUCUAACAGAUUUCCCCAAAUUGGAUGAUAUUCAUCCGUUCUAUG: 6.08 ratio
GAAAGGGGUUCAUCUCAGAGACCAUAUCGAGAAUCUUCUGACAAUGAAGGUAGGCGUACAACUAGGAGAUUGCUGUCACGGAUAGCUUCUAGCAUGUCAUCUACUUUUUUCUCACGAAGA: 0.113 ratio
UGGUUCUGGGUUGUUCGUGGUAGUGCCGGUUACAGCUCGUCACUCGGCCUCACGACCGGGAGCCGUGAGGCACCAUGCCCGCGGUGCUGGGGUUCGAAGGCAGCGCCAACAAGAUCGGCG: 0.0775 ratio
GGCUCCCCUUCUACUGAAUUAGUUUCUGGAGGAUCUGAUAAUCAAGUGAUUCACUGGGAAAUAGAGGAUAAUCAGCUUUUAAAAGCAGUGCAUCUUCAAGGCCAUGAAGGACCUGUUUAU: 0.181 ratio

Single results of other studies
PhoQ, residues 284 288 289 292 302 303 GANMMA
fold induction (PhoP, residues 12 14 15 18 19 MHTVL (Escherichia coli, UniProt P23836); Sort-seq, refers to: YFP reporter; E. coli; PhoQ-PhoP variant library, with: 10 µM Mg2+; relative to: high Mg2+ state, higher = stronger signaling): 14.2

For quick reference, copied from above (series 3):
CUUCCUCUGCCCCCUAUUGAGAUUCCAGCUGUAUUCUCGGGGAACACCUCCCCCAAAGUGGCAGUUGUUAAUCCUCAGCCACAGCUAUGGUCUAAAACAUCAGUGAAGAAGGCCCCCCCA: 0.402 ratio
GAAAGGGGUUCAUCUCAGAGACCAUAUCGAGAAUCUUCUGACAAUGAAGGUAGGCGUACAACUAGGAGAUUGCUGUCACGGAUAGCUUCUAGCAUGUCAUCUACUUUUUUCUCACGAAGA: 0.113 ratio
